Measured values gathered from unrelated publications.
Each line is one published result; not all experiments were run side by side. ± gives the spread as reported.
Melanocortin receptor 5: Melanocortin receptor 5 (Mus musculus, UniProt P41149)
UniProt P41149, sequence (whole entry, looked up): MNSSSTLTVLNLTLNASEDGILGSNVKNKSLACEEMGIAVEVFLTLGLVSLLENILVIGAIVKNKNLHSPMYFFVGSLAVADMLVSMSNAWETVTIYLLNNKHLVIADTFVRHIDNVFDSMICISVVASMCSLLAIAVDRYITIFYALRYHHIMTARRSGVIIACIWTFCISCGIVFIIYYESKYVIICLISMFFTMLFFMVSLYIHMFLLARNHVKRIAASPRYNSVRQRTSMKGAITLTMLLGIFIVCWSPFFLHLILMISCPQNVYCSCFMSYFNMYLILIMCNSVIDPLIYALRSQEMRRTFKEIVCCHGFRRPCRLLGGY
UniProt Q5S006, sequence (whole entry, looked up): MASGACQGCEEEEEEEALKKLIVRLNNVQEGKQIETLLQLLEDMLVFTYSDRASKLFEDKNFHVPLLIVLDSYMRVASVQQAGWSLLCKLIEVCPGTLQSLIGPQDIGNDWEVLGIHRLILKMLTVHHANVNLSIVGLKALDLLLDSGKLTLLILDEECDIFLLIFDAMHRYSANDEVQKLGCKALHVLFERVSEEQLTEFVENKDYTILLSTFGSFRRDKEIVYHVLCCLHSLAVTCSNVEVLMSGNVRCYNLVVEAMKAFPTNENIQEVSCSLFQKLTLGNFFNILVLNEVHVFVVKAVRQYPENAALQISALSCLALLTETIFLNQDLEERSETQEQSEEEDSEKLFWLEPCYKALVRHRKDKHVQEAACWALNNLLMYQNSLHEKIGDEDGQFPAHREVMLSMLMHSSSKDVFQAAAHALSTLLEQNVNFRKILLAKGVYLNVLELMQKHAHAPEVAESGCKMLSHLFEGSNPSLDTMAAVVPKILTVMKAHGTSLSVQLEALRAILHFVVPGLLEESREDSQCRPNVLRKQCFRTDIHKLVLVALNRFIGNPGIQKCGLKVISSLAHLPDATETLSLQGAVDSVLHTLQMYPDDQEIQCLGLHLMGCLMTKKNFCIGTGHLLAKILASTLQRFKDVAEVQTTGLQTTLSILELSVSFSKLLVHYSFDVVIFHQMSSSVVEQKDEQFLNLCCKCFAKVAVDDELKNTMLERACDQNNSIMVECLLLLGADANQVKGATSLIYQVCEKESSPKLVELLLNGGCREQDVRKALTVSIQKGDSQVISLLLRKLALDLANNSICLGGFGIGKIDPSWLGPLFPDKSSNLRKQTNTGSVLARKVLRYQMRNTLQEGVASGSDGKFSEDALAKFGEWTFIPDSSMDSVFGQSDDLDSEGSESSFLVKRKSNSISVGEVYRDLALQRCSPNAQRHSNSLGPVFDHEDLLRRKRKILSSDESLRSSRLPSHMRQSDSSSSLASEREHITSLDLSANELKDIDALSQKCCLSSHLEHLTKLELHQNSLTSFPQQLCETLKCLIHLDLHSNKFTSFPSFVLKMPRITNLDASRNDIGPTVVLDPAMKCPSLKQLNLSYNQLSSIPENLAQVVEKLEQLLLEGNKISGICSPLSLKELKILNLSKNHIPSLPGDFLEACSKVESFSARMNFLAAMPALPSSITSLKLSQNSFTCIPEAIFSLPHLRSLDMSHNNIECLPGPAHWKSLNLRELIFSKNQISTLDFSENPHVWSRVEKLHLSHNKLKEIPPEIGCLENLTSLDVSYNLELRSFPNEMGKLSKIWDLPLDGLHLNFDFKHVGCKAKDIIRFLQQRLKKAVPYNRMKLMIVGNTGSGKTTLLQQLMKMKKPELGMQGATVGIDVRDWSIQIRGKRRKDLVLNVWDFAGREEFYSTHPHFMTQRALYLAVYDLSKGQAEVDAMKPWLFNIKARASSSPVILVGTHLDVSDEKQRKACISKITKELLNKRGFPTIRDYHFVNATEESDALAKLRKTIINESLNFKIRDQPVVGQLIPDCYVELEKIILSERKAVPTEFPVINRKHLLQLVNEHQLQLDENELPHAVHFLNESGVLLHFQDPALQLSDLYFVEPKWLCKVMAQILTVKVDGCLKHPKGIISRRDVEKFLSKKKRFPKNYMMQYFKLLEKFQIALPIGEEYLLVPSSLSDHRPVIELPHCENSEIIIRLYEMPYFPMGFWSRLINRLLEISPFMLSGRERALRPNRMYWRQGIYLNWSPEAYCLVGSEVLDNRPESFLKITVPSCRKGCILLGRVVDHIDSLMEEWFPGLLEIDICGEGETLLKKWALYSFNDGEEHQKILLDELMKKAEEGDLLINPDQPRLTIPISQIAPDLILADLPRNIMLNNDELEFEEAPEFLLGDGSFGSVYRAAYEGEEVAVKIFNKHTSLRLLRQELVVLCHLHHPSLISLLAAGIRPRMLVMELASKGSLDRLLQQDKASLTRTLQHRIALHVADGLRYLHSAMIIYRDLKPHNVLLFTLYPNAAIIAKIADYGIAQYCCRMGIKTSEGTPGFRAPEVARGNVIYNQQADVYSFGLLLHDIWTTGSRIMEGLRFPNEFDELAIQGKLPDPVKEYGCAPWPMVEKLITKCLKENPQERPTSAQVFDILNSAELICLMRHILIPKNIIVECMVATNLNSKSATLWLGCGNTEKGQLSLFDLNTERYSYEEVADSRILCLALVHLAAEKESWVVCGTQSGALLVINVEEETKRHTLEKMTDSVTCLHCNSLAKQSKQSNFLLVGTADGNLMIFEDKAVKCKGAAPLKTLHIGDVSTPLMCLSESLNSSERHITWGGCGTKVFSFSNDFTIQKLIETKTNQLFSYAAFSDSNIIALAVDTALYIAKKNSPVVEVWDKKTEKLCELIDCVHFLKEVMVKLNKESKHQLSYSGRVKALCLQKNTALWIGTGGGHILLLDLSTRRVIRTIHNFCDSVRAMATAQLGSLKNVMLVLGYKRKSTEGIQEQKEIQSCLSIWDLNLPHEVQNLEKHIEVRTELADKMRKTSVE

Molecule | tested on | assay | system | setting | scale | endpoint | result
Cn1cc(-c2cnc3cnn(S(=O)(=O)c4cnc5ccc(-c6cnn(C)c6)cn45)c3c2)cn1 |  |  | healthy Chinese men, plasma | oral, 300 mg single dose, high-fat meal |  | apparent volume of distribution | 193 L
COC(=O)c1cccc(C(=O)OC)c1 | cysteine peptide Ac-RFAACAA-COOH | peptide depletion, DPRA RapidFire-MS/MS |  | 24 h, pH 7.5, room temperature, added: 5.0 µM cysteine peptide |  | IC50 | inactive
CCN(CC)CCNC(=O)c1c(C)[nH]c(/C=C2\C(=O)Nc3ccc(F)cc32)c1C |  |  | human | oral, 50 mg/day, day 15-29, efavirenz group |  | Cmin,ss | 17.7 ± 7.7 ng/mL
COC(=O)C[C@](O)(CCCC(C)(C)O)C(=O)O[C@@H]1C(OC)=C[C@]23CCCN2CCc2cc4c(cc2[C@H]13)OCO4 |  |  | CD1 mouse, lung | oral, 1 mg/kg, 24 h, below quantification limit 1.00 ng/mL |  | tissue concentration | not detected
CC(C)(N)C(=O)O | Ehrlich ascites cells, mouse | substrate binding to free carrier |  | equilibrium model K3 |  | Kd | 6000 µM
CCCC[C@@H]1NC(=O)[C@@H](NC(=O)[C@H](CCC(=O)O)NC(=O)CNC(=O)CN2CCN(CC(=O)O)CCN(CC(=O)O)CCN(CC(=O)O)CC2)CCCCNC(=O)C[C@@H](C(N)=O)NC(=O)[C@H](C(C)C)NC(=O)[C@@H]2CCCN2C(=O)[C@H](CCCNC(=N)N)NC(=O)CNC(=O)[C@H](Cc2c[nH]c3ccccc23)NC(=O)[C@H](CCCNC(=N)N)NC(=O)[C@@H](Cc2ccccc2)NC(=O)[C@H](Cc2c[nH]cn2)NC(=O)[C@H](CCC(=O)O)NC1=O [indium-111 labelled] |  |  | normal C57 mice, heart | intravenous, 0.037 MBq, 4 h |  | tissue uptake | 0.03 ± 0.02 %ID/g
Nc1nc2c(ncn2[C@@H]2O[C@H](COP(=O)(O)OP(=O)(O)OP(O)(O)=S)[C@@H](O)[C@H]2O)c(=O)[nH]1 | Saccharomyces cerevisiae | vacuole fusion |  | 0.2 mM, 120 min, 25 °C, vacuoles preincubated and reisolated |  | inhibition | 33%
CCCC[C@H](NC(=O)[C@H](CO)NC(=O)[C@H](Cc1ccc(O)cc1)NC(=O)[C@H](CO)NC(C)=O)C(=O)N[C@@H](CCC(=O)O)C(=O)N[C@@H](C)C(=O)N[C@H](Cc1ccccc1)C(=O)N[C@@H](CCCNC(=N)N)C(=O)N[C@@H](Cc1c[nH]c2ccccc12)C(=O)NCC(=O)N[C@@H](CCCCN)C(=O)N1CCC[C@H]1C(=O)N[C@H](C(N)=O)C(C)C | Melanocortin receptor 5 |  |  |  |  | EC50 | 0.00029 ± 0.00016 µM
O=C(CCCCCCC(=O)Nc1ccccc1)NO |  |  | patients, serum | oral, 600 mg, cycle 1 day 2, added: flavopiridol 30+30 mg/m2 |  | AUC(0-7 h) | 15.2 µM·h
CNC(=O)c1c(C)oc2cc(Oc3ncnc4cc(OC)c(OC)cc34)ccc12 |  |  | human, moderate hepatic impairment, plasma | oral, 2 mg, dose-corrected interim analysis | baseline: historical normal hepatic function | relative systemic exposure | ≤ 2 fold
O=C(C1CCCCC1)N1CC(=O)N2CCc3ccccc3C2C1 (centres unmarked) |  | shake-flask | Captex 355 | 37 °C |  | thermodynamic solubility | 13 ± 0.48 mg/g
N[C@@H](CC(=O)N1CCn2c(nnc2C(F)(F)F)C1)Cc1cc(F)c(F)cc1F |  |  | healthy Korean subjects, plasma | oral, 100 mg single dose, ABCB1 G2677T/A GT |  | AUC(0-2 h) | 478 ± 213 ng·h/mL
NC(=O)CC[C@@H]1NC(=O)[C@H](Cc2ccccc2)NC(=O)[C@H](Cc2ccc(O)cc2)NC(=O)CCSSC[C@@H](C(=O)N2CCC[C@H]2C(=O)N[C@H](CCCN=C(N)N)C(=O)NCC(N)=O)NC(=O)[C@H](CC(N)=O)NC1=O |  | UPLC-MS/MS | human plasma | 156.23 pg/mL, 6 h, room temperature |  | bench top stability | 93.8%
NC(=O)c1cnc2[nH]ccc2c1N[C@@H]1[C@@H]2CC3C[C@H]1C[C@@](O)(C3)C2 |  |  | healthy Japanese men, plasma | oral, 20 mg, single dose fasted |  | AUC(0-inf) | 260 ng·h/mL
CS/C(S)=N/CCCC[S+](C)[O-] (racemic) |  | RT-PCR, refers to: Cyp3a23/1 | rat, colon | oral gavage, 200 mg/kg, dosed for four days | baseline: vehicle | mRNA fold change | 0.121
CSCC[C@H](NC(=O)[C@H](C)NC(=O)[C@H](Cc1ccc(O)cc1)NC(=O)[C@H](CO)NC(C)=O)C(=O)N[C@@H](CCC(=O)O)C(=O)N[C@@H](Cc1c[nH]cn1)C(=O)N[C@@H](Cc1ccccc1)C(=O)N[C@@H](CCCNC(=N)N)C(=O)N[C@@H](Cc1c[nH]c2ccccc12)C(=O)NCC(=O)N[C@@H](CCCCN)C(=O)N1CCC[C@H]1C(=O)N[C@H](C(N)=O)C(C)C | Melanocortin receptor 5 |  |  |  |  | EC50 | 0.00984 ± 0.00431 µM
COc1ccc2c(c1)c(CC(=O)O)c(C)n2C(=O)c1ccc(Cl)cc1 |  | shake-flask | soybean oil | 37 °C |  | thermodynamic solubility | 2.02 ± 0.05 mg/g
CNCc1ccc(-c2[nH]c3cc(F)cc4c3c2CCNC4=O)cc1 |  |  | human patients, plasma | oral, 80 mg once daily, day 1, single dose, arithmetic mean |  | half-life | 11 h
Nc1ncnc2c1ncn2[C@@H]1O[C@H](COP(=O)(O)OP(=O)(O)O)[C@@H](O)[C@H]1O | Lrrk2 (Mus musculus, UniProt Q5S006) | enzyme activity, inhibitor, TR-FRET |  | Ki,e, added: ATP varied, PLK-peptide substrate |  | Ki | 20 ± 3 µM
C[C@@H]1CN(c2c(F)c(N)c3c(=O)c(C(=O)O)cn(C4CC4)c3c2F)C[C@H](C)N1 |  |  | male Hartley guinea pig, anaesthetized | intravenous infusion, 30 mg/kg, 10 min infusion | baseline: baseline | QTc change | 20 ± 3.3%
CC(C)NC(=O)[C@H]1CCC[C@H]1Nc1nc(Nc2ccc(C(=O)N(C)C3CCN(C)CC3)cc2)ncc1C(F)(F)F |  |  | advanced solid tumour patients | dose not given |  | patients with AEs | 15.7%
CCCSc1ccc2nc(NC(=O)OC)[nH]c2c1 |  | shake-flask | PEG400 | 37 °C |  | thermodynamic solubility | ≥ 5.75 mg/g
CCOC(=O)/C=C\C(=O)OCC | cysteine peptide Ac-RFAACAA-COOH | peptide depletion, DPRA RapidFire-MS/MS |  | 24 h, pH 7.5, room temperature, added: 5.0 µM cysteine peptide |  | IC50 | 300 µM
CC(C)[C@H](NC(=O)[C@@H]1CCCN1C(=O)[C@H](CCCNC(=N)N)NC(=O)[C@H](CS)NC(=O)[C@H](Cc1c[nH]c2ccccc12)NC(=O)[C@H](CCCNC(=N)N)NC(=O)[C@@H](Cc1ccccc1)NC(=O)[C@H](Cc1c[nH]cn1)NC(=O)[C@H](CCC(=O)O)NC(=O)[C@H](CS)NC(=O)[C@H](CS)NC(=O)[C@H](CCCCN)NC(=O)[C@@H]1CC(=O)N[C@@H](CCCNC(=N)N)C(=O)N[C@@H](C(C)C)C(=O)N[C@@H](CC(=O)O)C(=O)N[C@H](Cc2ccc(O)cc2)C(=O)N1)C(N)=O [technetium-99m labelled] |  |  | female C57 mouse, B16/F1 melanoma, kidneys | intravenous, dose not given, 2 h, added: NDP-MSH 10 µg co-injected |  | tissue uptake | 67.2 ± 9.72 %ID/g
[2H]C([2H])([2H])Oc1cc2c(cc1OC([2H])([2H])[2H])C1CC(=O)C(CC(C)C)CN1CC2 (centres unmarked) |  | refers to: deuterated β-HTBZ | healthy human volunteers, plasma | oral, 6 mg single dose, standard meal |  | dose-normalized AUC(0-t) | 4.1 ng·h/mL
acyl ghrelin (human) |  |  | Ghsr knockout mice, olfactory bulb | intravenous, dose not given, 10 min, vascular space corrected |  | tissue/serum ratio | 7.79 µL/g

Repeated from above:
Molecule | tested on | assay | system | setting | scale | endpoint | result
CCN(CC)CCNC(=O)c1c(C)[nH]c(/C=C2\C(=O)Nc3ccc(F)cc32)c1C |  |  | human | oral, 50 mg/day, day 15-29, efavirenz group |  | Cmin,ss | 17.7 ± 7.7 ng/mL
COC(=O)c1cccc(C(=O)OC)c1 | cysteine peptide Ac-RFAACAA-COOH | peptide depletion, DPRA RapidFire-MS/MS |  | 24 h, pH 7.5, room temperature, added: 5.0 µM cysteine peptide |  | IC50 | inactive
